Measurements gathered from unrelated publications.
± gives the spread as reported.
Organism: Acinetobacter baumannii

Structure (SMILES)	assay	system	setting	scale	MIC
CC[C@H](C)[C@H](NC(=O)[C@H](CCCCN)NC(=O)[C@H](CC(N)=O)NC(=O)[C@H](Cc1c[nH]c2ccccc12)NC(=O)[C@H](Cc1ccccc1)NC(=O)[C@H](CCCCN)NC(=O)[C@H](CCCCNC(=N)N)NC(=O)[C@H](CC(C)C)NC(=O)[C@H](Cc1c[nH]c2ccccc12)NC(=O)[C@H](CCCCN)NC(=O)[C@H](CCCCNC(=N)N)NC(=O)[C@H](CC(C)C)NC(=O)CNC(C)=O)C(=O)N[C@@H](CCCCN)C(=O)N[C@@H](CCCCNC(=N)N)C(N)=O	bacterial growth, broth microdilution	multidrug-resistant	–	–	3.12 µM
CC[C@H](C)[C@H](NC(=O)[C@@H](CCCNC(=N)N)NC(=O)[C@H](CCCNC(=N)N)NC(=O)[C@@H]1CCCN1C(=O)[C@H](Cc1c[nH]c2ccccc12)NC(=O)[C@H](CCCNC(=N)N)NC(=O)[C@@H]1CCCN1C(=O)[C@H](CCCNC(=N)N)NC(=O)[C@@H]1CCCN1C(=O)[C@H](CC(C)C)NC(=O)[C@H](Cc1ccc(O)cc1)NC(=O)[C@@H]1CCCN1C(=O)[C@@H]1CCCN1C(=O)[C@H](CCCCN)NC(=O)[C@H](CC(=O)O)NC(=O)[C@@H](N)C(C)C)C(=O)N[C@@H](Cc1ccc(O)cc1)C(=O)N[C@@H](CC(N)=O)C(=O)N[C@H](CCCNC(=N)N)C(N)=O	broth microdilution	DSM 30008	18 h	–	16 µg/mL
CC(C)C[C@H](NC(=O)[C@H](Cc1ccc(O)cc1)NC(=O)[C@@H]1CCCN1C(=O)[C@H](CCCNC(=N)N)NC(=O)[C@@H]1CCCN1C(=O)[C@H](CCCCN)NC(=O)[C@H](CC(=O)O)NC(=O)[C@@H]1CCCN1C(=O)[C@H](CCCNC(=N)N)NC(=O)C1(N)CCCCC1)C(=O)N1CCC[C@H]1C(=O)N[C@@H](CCCNC(=N)N)C(=O)N1CCC[C@H]1C(=O)N[C@@H](CCCNC(=N)N)C(=O)N1CCC[C@H]1C(=O)N1CCC[C@H]1C(=O)N[C@@H](CCCNC(=N)N)C(=O)N1CCC[C@H]1C(=O)N[C@H](C(=O)N[C@@H](CCCNC(=N)N)C(=O)N[C@@H](CSCc1ccc(CSC[C@H](NC(=O)[C@H](CCCNC(=N)N)NC(=O)[C@@H](NC(=O)[C@@H]2CCCN2C(=O)[C@H](CCCNC(=N)N)NC(=O)[C@@H]2CCCN2C(=O)[C@@H]2CCCN2C(=O)[C@H](CCCNC(=N)N)NC(=O)[C@@H]2CCCN2C(=O)[C@H](CCCNC(=N)N)NC(=O)[C@@H]2CCCN2C(=O)[C@H](CC(C)C)NC(=O)[C@H](Cc2ccc(O)cc2)NC(=O)[C@@H]2CCCN2C(=O)[C@H](CCCNC(=N)N)NC(=O)[C@@H]2CCCN2C(=O)[C@H](CCCCN)NC(=O)[C@H](CC(=O)O)NC(=O)[C@@H]2CCCN2C(=O)[C@H](CCCNC(=N)N)NC(=O)C2(N)CCCCC2)C(C)C)C(=O)NN)cc1)C(=O)NN)C(C)C	bacterial growth	ATCC 19606, 100% Mueller-Hinton broth	90 min, 37 °C, strain ATCC 19606	–	13.1 ± 0.7 µg/mL
COc1cc2c(=O)c(C(=O)NCCNCCO)cn(Cc3ccccc3)c2cc1OCc1cccc(Br)c1	–	ATCC 19606	–	≥80% growth inhibition	0.5 µg/mL
CC[C@@H](C)[C@@H](NC(=O)[C@@H](C)NC(=O)[C@H](NC(=O)[C@@H](CC(=O)O)NC(=O)[C@@H](CCCCN)NC(=O)[C@@H](CO)NC(=O)[C@H](NC(=O)[C@@H](CC(N)=O)NC(=O)[C@@H](C)NC(=O)[C@H](NC(=O)[C@@H](CCC(=O)O)NC(=O)[C@@H](CCCCN)NC(=O)[C@H](NC(=O)[C@H](NC(=O)[C@@H](Cc1c[nH]cn1)NC(=O)[C@@H](CCCCN)NC(=O)[C@H](NC(=O)[C@@H](CCCCN)NC(=O)[C@@H](CCCCN)NC(=O)[C@H](NC(=O)[C@@H](CC(C)C)NC(=O)[C@@H](CCCCN)NC(=O)[C@@H](CC(N)=O)NC(=O)[C@@H](Cc1ccccc1)NC(=O)[C@@H](CCCNC(=N)N)NC(=O)[C@@H](CCCCN)NC(=O)[C@@H](CCCNC(=N)N)NC(=O)[C@@H](Cc1ccccc1)NC(=O)CN)C(C)C)C(C)C)[C@H](C)O)[C@H](C)CC)[C@H](C)O)C(C)C)C(C)C)C(=O)N[C@@H](C(=O)N[C@H](C)C(=O)NCC(=O)N[C@H](CO)C(=O)NCC(=O)N[C@@H](C(=O)N[C@H](C)C(=O)N[C@@H](C(=O)NCC(=O)N[C@H](C)C(=O)N[C@H](C)C(=O)N[C@H](CCSC)C(N)=O)C(C)C)C(C)C)C(C)C	broth microdilution	ATCC 19606, CAMHB	–	–	64 µg/mL
CC[C@H](C)[C@H](NC(=O)[C@H](CCCN)NC(=O)[C@H](CC(N)=O)NC(=O)[C@H](Cc1c[nH]c2ccccc12)NC(=O)[C@H](Cc1ccccc1)NC(=O)[C@H](CCCN)NC(=O)[C@H](CCCCNC(=N)N)NC(=O)[C@H](CC(C)C)NC(=O)[C@H](Cc1c[nH]c2ccccc12)NC(=O)[C@H](CCCN)NC(=O)[C@H](CCCCNC(=N)N)NC(=O)[C@H](CC(C)C)NC(=O)CNC(C)=O)C(=O)N[C@@H](CCCN)C(=O)N[C@@H](CCCCNC(=N)N)C(N)=O	bacterial growth, broth microdilution	multidrug-resistant	–	–	3.12 µM
CCCCCCCCCCCCCC(=O)N[C@H](CCN)C(=O)N[C@@H]1C(=O)N[C@@H](CCN)C(=O)N[C@@H](CC(C)C)C(=O)N[C@@H](CCN)C(=O)N[C@H](Cc2ccccc2)C(=O)N[C@@H](CC(C)C)C(=O)N[C@@H](CCN)C(=O)N[C@H](CCN)C(=O)N[C@@H](C(C)C)C(=O)N[C@@H](CC(=O)O)C(=O)O[C@@H]1C	broth microdilution	ATCC BAA-1605, carbapenem-resistant MDR	–	–	2 µg/mL
CC(C)[C@@H]1NC(=O)[C@@H]2CCCN2C(=O)[C@@H](C)NC(=O)[C@H](CO)NC(=O)[C@H](C)NC(=O)[C@H](C(C)(C)C)NC(=O)[C@H](CCO)NC(=O)[C@H](Cc2c[nH]c3ccccc23)NC(=O)[C@H](CCO)NC(=O)[C@@H](CCN)NC(=O)[C@H](CCC(N)=O)NC(=O)[C@H](CCN)NC(=O)[C@H](Cc2ccc(O)cc2)NC(=O)[C@H]([C@@H](C)O)NC1=O	broth microdilution	ATCC 9955, CAMHB with polysorbate-80	16 h	–	> 64 µg/mL
CC[C@H](C)[C@@H]1NC(=O)[C@@H](CC(C)C)NC(=O)[C@H](CCN)NC(=O)[C@@H](NC(=O)[C@@H](CO)NC(=O)[C@@H](NC(=O)[C@H](CCN)NC(=O)c2ccc(-c3ccccc3)cc2)[C@@H](C)O)CCNC(=O)[C@H](CC(C)C)NC(=O)[C@H](CCN)NC(=O)[C@H](CCN)NC1=O	–	0301, mcr-1 transformed	–	–	< 2 µg/mL
NCCCC[C@@H]1NC(=O)[C@@H](Cc2c[nH]c3ccccc23)NC(=O)[C@H](Cc2c[nH]c3ccccc23)NC(=O)[C@@H](N)CSCc2ccc(cc2)CSC[C@@H](C(N)=O)NC(=O)[C@@H](Cc2c[nH]c3ccccc23)NC(=O)[C@H](Cc2c[nH]c3ccccc23)NC(=O)[C@@H](Cc2c[nH]c3ccccc23)NC(=O)[C@H](CCCCN)NC(=O)[C@@H](CCCCN)NC(=O)[C@H](CCCCN)NC(=O)[C@@H](CCCCN)NC1=O	–	19606	–	–	16 µg/mL

Some of these lines once more:
Structure (SMILES)	assay	system	setting	scale	MIC
NCCCC[C@@H]1NC(=O)[C@@H](Cc2c[nH]c3ccccc23)NC(=O)[C@H](Cc2c[nH]c3ccccc23)NC(=O)[C@@H](N)CSCc2ccc(cc2)CSC[C@@H](C(N)=O)NC(=O)[C@@H](Cc2c[nH]c3ccccc23)NC(=O)[C@H](Cc2c[nH]c3ccccc23)NC(=O)[C@@H](Cc2c[nH]c3ccccc23)NC(=O)[C@H](CCCCN)NC(=O)[C@@H](CCCCN)NC(=O)[C@H](CCCCN)NC(=O)[C@@H](CCCCN)NC1=O	–	19606	–	–	16 µg/mL
